Assay results pooled from the literature.
Protocols differ between the studies behind these lines. Several values in a cell are separate wells, animals, samples, runs or records. ± gives the spread as reported.
CASP3: Caspase-3 (CASP3, Homo sapiens, UniProt P42574)
GBA2: Beta-glucosidase (GBA2, Homo sapiens, UniProt Q9HCG7)
T1: hairpin RNA, hairpin; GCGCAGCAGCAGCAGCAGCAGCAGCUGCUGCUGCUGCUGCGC

SMILES = N#CN1CC[C@H](C(=O)Nc2nc3c(s2)CN(C(=O)Cn2cc(COCCOCCOCCOCCNC(=O)CCCC[C@@H]4SC[C@@H]5NC(=O)N[C@@H]54)nn2)CC3)C1; target = PARK7 (Homo sapiens, UniProt Q99497); test = probe binding, affinity probe, neutravidin pull-down LC-MS/MS; test system = HEK293T, cell lysate; setting = 5 µM, 1 h, single replicate, unit not given; scale = higher = more pulled down; measurement = iBAQ abundance; result = 3.39e+09 and 1.19e+09 and 5.47e+09
SMILES = Cc1cc(=O)oc2cc(NC(=O)CCCCCCCC(=O)NO)ccc12; target = HDAC8 (Homo sapiens, UniProt Q9BY41); test = ITC; test system = Tris-HCl buffer; setting = concentration not given, 288 K; measurement = binding stoichiometry; result = 0.8
SMILES = Cc1ccc2c(c1)C(O)CC1(CCN(CC(O)c3ccc4c(c3)CC(C)O4)CC1)O2 (stereo not shown); target = B4GALT1 (Homo sapiens, UniProt P15291); test = enzyme activity, inhibitor, UDP-Glo; setting = 100 µM; scale = lower means stronger inhibition; measurement = luminescence; result = 66900 a.u.
SMILES = CC(=O)N[C@H](CCc1ccccc1)C(=O)N[C@@H](CCC(=O)O)C(=O)N[C@@H](CCC(N)=O)C(=O)N[C@@H](CC(=O)O)C(=O)COC(=O)c1c(C)cccc1C; target = CASP3; test = enzyme activity, inhibitor; measurement = kinact/KI; result = 12000 M⁻¹ s⁻¹
SMILES = O=C(NC[C@@H](Cc1ccc(F)cc1)N1CCC(O)(C(F)(F)F)CC1)C1(c2ccc(Cl)cc2)CCCC1; target = TRPA1 (Homo sapiens, UniProt O75762, V875P); test = calcium influx, agonist; scale = relative to: V875P mutant over wild type; measurement = EC50 fold change; result = 719
SMILES = C=CC(=O)N1C[C@H](C)N(c2nc(OC[C@@]34CCCN3C[C@H](F)C4)nc3c(F)c(-c4ccc(F)c5sc(N)c(C#N)c45)c(C(F)(F)F)cc23)C[C@H]1C; target = GTPase KRas, GppNHp-bound (KRAS, Homo sapiens, UniProt P01116, Q61H); test = binding; measurement = dissociation rate constant; result = 0.313 ± 0.016 s⁻¹
SMILES = Cc1cc(C(=O)Nc2nc3cccc(C)c3n2[C@H]2CCCCN(C(=O)/C=C/CN(C)C)C2)ccn1; target = CDC2-like kinase 1 (Trypanosoma brucei brucei, UniProt Q382U0); test = ADP-Glo; setting = 0.03906 µM; measurement = kinase activity; result = 88.2% and 109%
SMILES = Cc1ccc(-c2ccc(COCCCCCN3C[C@H](O)[C@@H](O)[C@H](O)[C@H]3CO)cc2)cc1; target = GBA2; test = inhibitor, 4MU-β-D-glucopyranoside; test system = HEK293T homogenates overexpressing GBA2; scale = relative to: GCS IC50 over GBA2 IC50; measurement = selectivity ratio; result = 33
SMILES = O=C1c2sc(-c3ccc(N4CCC(CO)CC4)nc3F)nc2CCN1c1cccnc1; target = Amyloid-beta precursor protein, amyloid-beta insoluble aggregates (APP, Homo sapiens, UniProt P05067); test = radioligand filter binding; test system = AD brain insoluble fraction; setting = 100 nM; scale = higher = more binding; measurement = specific binding; result = 729 a.u. and 1390 a.u.
SMILES = CC(C)=CCC/C(C)=C/CC/C(C)=C/CO[P@@](=O)(O)OP(=O)(O)O (stereo in doubt); target = Protein farnesyltransferase (Rattus norvegicus, UniProt Q02293+Q04631); test = substrate, fluorescence anisotropy; setting = isoprenoid Km, with: FAM-Rheb peptide; measurement = Km; result = 0.042 µM
SMILES = OC[C@H]1N[C@H](C/C=C/CCOCC23CC4CC(CC(C4)C2)C3)[C@H](O)[C@@H](O)[C@@H]1O; target = GBA2; test = inhibitor, 4MU-β-D-glucopyranoside; test system = HEK293T homogenates overexpressing GBA2; scale = relative to: GCS IC50 over GBA2 IC50; measurement = selectivity ratio; result = 500
SMILES = Nc1nc(SCc2ccc(Cl)cc2)nn1S(=O)(=O)c1ccc(-c2ccccn2)s1; target = LYPLAL1 (Homo sapiens, UniProt Q5VWZ2); test = enzyme activity, activator, gel-based ABPP; test system = purified protein; setting = concentration not given, with: FP-rhodamine; scale = relative to: DMSO; measurement = probe labeling increase; result = 1.5 fold
SMILES = C#CCCC1(CCC(=O)NCC2CCN(c3c(F)cc4c(=O)c(C(=O)O)cn(CC)c4c3F)C2)N=N1 (stereo not shown); target = T1, hairpin RNA, hairpin; test = gel after photo-cross-linking; setting = covalent; measurement = binding; result = binds weakly
SMILES = CC(=O)N[C@@H](CC(C)C)C(=O)N[C@H](C(=O)N[C@@H](Cc1c[nH]cn1)C(=O)N[C@@H](CC(=O)O)C(=O)COC(=O)c1c(C)cccc1C)C(C)(C)C; target = CASP3; test = enzyme activity, inhibitor; measurement = kinact/KI; result = 6700 M⁻¹ s⁻¹
SMILES = N[C@H]1CC[C@H](Nc2nccc(-c3cccnc3Oc3ccc(NC(=O)NC4CC4)c4ccccc34)n2)CC1; target = YWHAZ (Homo sapiens, UniProt P63104); test = kinobead competition pulldown; test system = HEK293/HCT116 lysate mixture; setting = 10 µM, 1 h, 4 °C; scale = lower = stronger competition; measurement = log2 LFQ intensity; result = 25.7 and 25.5 and 25.4
SMILES = CCCCCOCCCCCN1C[C@H](O)[C@@H](O)[C@H](O)[C@@H]1CO; target = GBA2; test = inhibitor, 4MU-β-D-glucopyranoside; test system = HEK293T homogenates overexpressing GBA2; scale = relative to: GCS IC50 over GBA2 IC50; measurement = selectivity ratio; result = 10
SMILES = CCCCCC=CC=C1C(=O)C=CC1CC=CCCCC(=O)O (stereo not shown); target = TYMS (Homo sapiens, UniProt P04818); test = competitive isoTOP-ABPP; test system = Ramos soluble proteome; setting = 100 µM, with: iodoacetamide probe; scale = relative to: DMSO over compound-treated, higher = stronger cysteine blockade; measurement = isoTOP-ABPP competition ratio; result = 2
SMILES = CCCCCN1C[C@H](O)[C@@H](O)[C@H](O)[C@@H]1CO; target = GBA2; test = inhibitor, 4MU-β-D-glucopyranoside; test system = HEK293T homogenates overexpressing GBA2; scale = relative to: GCS IC50 over GBA2 IC50; measurement = selectivity ratio; result = 60
SMILES = CC(C)[C@@H]1NC(=O)[C@H](Cc2ccccc2)NC(=O)CSC[C@@H](C(N)=O)NC(=O)[C@H](CCC(=O)O)NC(=O)[C@H](CO)NC(=O)[C@H](Cc2c[nH]c3cccc(Cl)c23)NC(=O)[C@H](C2CCCCC2)NC(=O)[C@H](C(C)C)NC(=O)[C@H](Cc2ccc(O)cc2)NC(=O)[C@H](CC(=O)O)NC(=O)[C@H](Cc2c[nH]c3ccccc23)NC(=O)[C@H](Cc2ccc(N)nc2)NC(=O)[C@H](Cc2c[nH]c3ccc(Cl)cc23)NC(=O)[C@H](CCC(=O)O)NC1=O; target = Interleukin-1 receptor-like 2 (IL1RL2, Homo sapiens, UniProt Q9HB29); test = reporter gene (SEAP), inhibitor, HEK-Blue IL-36R reporter; test system = HEK-Blue IL-36R cells; setting = 0.0017 µM, 6 h, with: IL-36β 0.03 ng/mL; measurement = remaining activity; result = 83.9%
SMILES = CCCC[C@H](NC(=O)[C@H](CC(C)C)NC(=O)[C@H](CCC(N)=O)NC(=O)[C@@H](NC(=O)[C@H](CCC(=O)O)NC(=O)C(C)(C)NC(=O)[C@@H](NC(=O)C1(N)CCCC1)C(C)C)[C@@H](C)CC)C(=O)N[C@@H](Cc1c[nH]cn1)C(=O)N[C@@H](CCC(N)=O)C(=O)N[C@@H](CCCCNC(=N)N)C(=O)N[C@@H](C)C(=O)N[C@@H](CCCCNC(=O)[C@H](CCCNC(=N)N)NC(=O)CCCCCCCCCCCCCCCCC(=O)O)C(N)=O; target = PTH1R (Homo sapiens, UniProt Q03431); test = cAMP response, agonist, GloSensor cAMP; test system = GP-2.3; setting = washout phase; measurement = Emax (normalized AUC); result = 93 ± 6%
SMILES = OC[C@H]1[C@@H](O)[C@H](O)[C@@H](O)CN1CCCCCOCc1ccccc1-c1ccccc1; target = GBA2; test = inhibitor, 4MU-β-D-glucopyranoside; test system = HEK293T homogenates overexpressing GBA2; scale = relative to: GCS IC50 over GBA2 IC50; measurement = selectivity ratio; result = 8
SMILES = CC(=O)NC(Cc1ccccc1Cl)C(=O)N1CCCC1C(=O)N1CCCC1C(=O)N1CCC2C=CC3CCC(C(=O)O)N3C(=O)C21 (stereo not shown); target = Vasodilator-stimulated phosphoprotein, EVH1 domain (VASP, Homo sapiens, UniProt P50552); test = fluorescence titration; setting = 25 °C; measurement = binding free energy; result = -7.5 kcal/mol
SMILES = CCCCCCCOCCCCCN1C[C@H](O)[C@@H](O)[C@H](O)[C@H]1CO; target = GBA2; test = inhibitor, 4MU-β-D-glucopyranoside; test system = HEK293T homogenates overexpressing GBA2; scale = relative to: GCS IC50 over GBA2 IC50; measurement = selectivity ratio; result = 20
SMILES = CC(=O)N[C@H](CCc1ccccc1)C(=O)N[C@@H](CCCC(=O)O)C(=O)N1C[C@H](O)C[C@H]1C(=O)N[C@@H](CC(=O)O)C(=O)COC(=O)c1c(C)cccc1C; target = CASP3; test = enzyme activity, inhibitor; measurement = kinact/KI; result = 6000 M⁻¹ s⁻¹
SMILES = OC[C@@H]1[C@@H](O)[C@H](O)[C@@H](O)CN1CCCCOCCC12CC3CC(CC(C3)C1)C2; target = GBA2; test = inhibitor, 4MU-β-D-glucopyranoside; test system = HEK293T homogenates overexpressing GBA2; scale = relative to: GBA1 IC50 over GBA2 IC50; measurement = selectivity ratio; result = 311
SMILES = CCN(CC)C(CO)c1cccc2c(C)c(C)oc12 (stereo not shown); target = LPAR1 (Homo sapiens, UniProt Q92633, W271F); test = G-protein dissociation, agonist, NanoBiT; test system = HEK-293T; setting = 10 nM, W271F mutant; scale = relative to: baseline luminescence; measurement = fold change; result = 0.997 and 0.603 and 0.863 and 1.03 and 0.929 and 0.868
SMILES = CC(C)(C)CCOCCCCCN1C[C@H](O)[C@@H](O)[C@H](O)[C@H]1CO; target = GBA2; test = inhibitor, 4MU-β-D-glucopyranoside; test system = HEK293T homogenates overexpressing GBA2; scale = relative to: GBA1 IC50 over GBA2 IC50; measurement = selectivity ratio; result = 800
SMILES = N=C(N)c1ccc(-c2ccc(C(=N)N)s2)cc1; target = PRMT5 (Homo sapiens, UniProt O14744); test = enzyme activity, inhibitor, radiometric; setting = 20 µM; measurement = remaining activity; result = 53%

Excerpt of the above:
SMILES = CCN(CC)C(CO)c1cccc2c(C)c(C)oc12 (stereo not shown); target = LPAR1 (Homo sapiens, UniProt Q92633, W271F); test = G-protein dissociation, agonist, NanoBiT; test system = HEK-293T; setting = 10 nM, W271F mutant; scale = relative to: baseline luminescence; measurement = fold change; result = 0.997 and 0.603 and 0.863 and 1.03 and 0.929 and 0.868
SMILES = CC(C)=CCC/C(C)=C/CC/C(C)=C/CO[P@@](=O)(O)OP(=O)(O)O (stereo in doubt); target = Protein farnesyltransferase (Rattus norvegicus, UniProt Q02293+Q04631); test = substrate, fluorescence anisotropy; setting = isoprenoid Km, with: FAM-Rheb peptide; measurement = Km; result = 0.042 µM
SMILES = Cc1cc(=O)oc2cc(NC(=O)CCCCCCCC(=O)NO)ccc12; target = HDAC8 (Homo sapiens, UniProt Q9BY41); test = ITC; test system = Tris-HCl buffer; setting = concentration not given, 288 K; measurement = binding stoichiometry; result = 0.8
SMILES = OC[C@@H]1[C@@H](O)[C@H](O)[C@@H](O)CN1CCCCOCCC12CC3CC(CC(C3)C1)C2; target = GBA2; test = inhibitor, 4MU-β-D-glucopyranoside; test system = HEK293T homogenates overexpressing GBA2; scale = relative to: GBA1 IC50 over GBA2 IC50; measurement = selectivity ratio; result = 311
